Measurements pooled from the literature.
A part holds a random share of what one study measured. Changes are numbered by the printed parent chain.

Series 1
Target: TAR DNA-binding protein 43, full length, His tag (TARDBP, Homo sapiens, UniProt Q13148, residues 1-414)
Method: RNA Bind-n-Seq
Molecule type: RNA
Sample: in vitro
Concentration: 20 nM
Setting: 6-mer, flanks averaged, single round
With: 150 mM LiCl
Relative to: input library
Direction: higher = stronger binding
Strand | 6-mer enrichment (R)
AACGCA | 0.821
UGAUCC | 0.877
UUGCUU | 1.11
AUAGGG | 1.07
CGGUAC | 0.88
GGCCAA | 0.931
CUUUAG | 0.933
UAAGGU | 0.982

Series 2
Target: ABI1, truncated, D143A, DHFR fusion (Arabidopsis thaliana)
Method: DHFR PCA, deep sequencing
Sample: yeast
Setting: methotrexate growth selection, single substitutions
With: (+)-ABA 710 µM
Relative to: wild-type fitted maximum
Direction: higher = stronger binding
Parent: PYL1, truncated, DHFR fusion (Arabidopsis thaliana); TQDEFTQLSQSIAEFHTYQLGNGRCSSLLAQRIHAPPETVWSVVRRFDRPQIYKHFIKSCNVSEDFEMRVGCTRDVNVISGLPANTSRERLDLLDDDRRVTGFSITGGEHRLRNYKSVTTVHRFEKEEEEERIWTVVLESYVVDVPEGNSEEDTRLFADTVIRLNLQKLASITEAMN; partner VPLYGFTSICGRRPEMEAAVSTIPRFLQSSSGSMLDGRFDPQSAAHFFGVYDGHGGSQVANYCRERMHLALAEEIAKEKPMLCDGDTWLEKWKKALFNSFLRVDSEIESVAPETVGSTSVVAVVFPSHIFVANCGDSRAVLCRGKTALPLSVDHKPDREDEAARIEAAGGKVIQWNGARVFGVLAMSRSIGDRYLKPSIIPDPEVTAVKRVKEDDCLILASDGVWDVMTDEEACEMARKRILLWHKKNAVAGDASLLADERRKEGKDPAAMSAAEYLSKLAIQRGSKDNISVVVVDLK
Change | relative binding score [%]
S42D | 103
A170L | 82.6
T135K | 0.445
L169G | -2.56
K116W | 21.4
A30G | 96.1
N22L | 102
Q19A | 111

Mixed results
HLA class I histocompatibility antigen, A alpha chain allele A*25:01: HLA class I histocompatibility antigen, A alpha chain, allele A*25:01 (Homo sapiens, UniProt P04439)
CCNB1: CCNB1, cyclin fold, Cln2 fusion (human)
P1: viral docking peptide; KKVKRRLFETREL
Molecule | target | assay | test system | setting | scale | measurement | result
WASGVPAAT | HLA class I histocompatibility antigen, A alpha chain allele A*25:01 | peptide-MHC binding | peptide | concentration not given | – | binding | inactive
P1 F8A | CCNB1 | yeast growth competition, sequencing | yeast | weak parent motif | relative to: not given, higher = stronger binding | normalised enrichment score | 0.561
FTWQHNYYL | HLA class I histocompatibility antigen, A alpha chain allele A*25:01 | peptide-MHC binding | peptide | concentration not given | – | binding | inactive
P1 R5K | CCNB1 | yeast growth competition, sequencing | yeast | weak parent motif | relative to: not given, higher = stronger binding | normalised enrichment score | 0.633

For quick reference, copied from above (series 2):
Change | relative binding score [%]
L169G | -2.56
